Assay results gathered from unrelated publications.
Compare with care: the assays were run in different laboratories. Numbers after ± are the reported error.

The anorexia of `CCN1[C@@H](C(=O)NC23CCC(C(=O)O)(CC2)CC3)[C@H](c2cccc(Cl)c2F)[C@]2(C(=O)Nc3cc(Cl)ccc32)C12CCCCC2` is reported as 4.8% (advanced solid tumour patients; oral, dose not given).
With `COc1ccc2c(c1)CN(C(=O)CCN1CCC(Cc3ccccc3)CC1)CC[S@@+]2[O-]` the QTcF was 289 ± 11 ms (female beagle dogs, chronic AV block; intravenous, 3 mg/kg, before dosing).
Under “subjects with adverse event Dizziness”, `NCCCC[C@@H]1NC(=O)[C@@H](Cc2c[nH]c3ccccc23)NC(=O)[C@H](c2ccccc2)NC(=O)[C@@H]2C[C@@H](OC(=O)NCCN)CN2C(=O)[C@H](Cc2ccccc2)NC(=O)[C@H](Cc2ccc(OCc3ccccc3)cc2)NC1=O` is recorded as 15% (healthy human volunteers; 600 µg twice daily).
Under “grade 3-4 TRAE incidence”, `COc1ccc(-c2c(-c3ccc(C#N)c(F)c3)nc(N3CCC(N)CC3)n(C)c2=O)cc1F` is recorded as 0% (measured: conjunctival hemorrhage; neuroendocrine neoplasm patients; oral, 60 mg, dose expansion).
`Cc1ccc(N=Nc2ccc3[nH]cc(CCN(C)C)c3c2)cc1`: “cis isomer at photostationary state” 87% (light irradiation; solution; added: light 385 nm).
With `C=C(CN(C(=O)c1c(C(F)F)nn(C)c1F)C1CC1)c1ccc(Cl)cc1Cl` the mortality was 0% (static acute toxicity test; zebrafish (Brachydanio rerio); 0.578 mg a.i./L, 6 h).
With `CC(C)CC(=O)OC[C@H]1O[C@@](C#N)(c2ccc3c(N)ncnn23)[C@H](O)[C@@H]1O` the bound fraction was 0.918 (plasma protein binding; rat plasma; 9 µM).
With `CCN1CCN(Cc2ccc(Nc3ncc(F)c(-c4cc(F)c5nc6n(c5c4)[C@H](C)CCC6)n3)nc2)CC1` the diarrhoea incidence was 16.7% (patients with advanced solid tumours; dose not given, phase Ia monotherapy).
With `COc1ncccc1-c1cnn2ccc(N3CCN(C(=O)OC(C)C)CC3)nc12` the drug concentration was 90 nM (rat, STZ model, plasma; oral, 1 mg/kg, 240 min).
`Nc1ncnc2c1ncn2[C@@H]1O[C@@H]2COP(=O)([S-])O[C@@H]3[C@H](O)[C@@H](COP([O-])(=S)O[C@H]2[C@H]1O)O[C@H]3n1cnc2c(N)ncnc21.[Na+].[Na+]` (some centres unmarked) gave a basophil percentage of 0.2 ± 0.18% (non-tumor-bearing mice, blood; intravenous, 1 mg/kg, toxicity study).
Under “incidence of SAE”, `CO[C@H]1C[C@@H]2CC[C@@H](C)[C@@](O)(O2)C(=O)C(=O)N2CCCC[C@H]2C(=O)O[C@H]([C@H](C)C[C@@H]2CC[C@@H](OC(=O)NCCOCCOCCOCCOCCOCCOCCOCCOCCC(=O)N3CCc4cc(Cn5nc(-c6ccc7oc(N)nc7c6)c6c(N)ncnc65)ccc4C3)[C@H](OC)C2)C[C@@H](O)[C@H](C)/C=C(\C)[C@@H](O)[C@@H](OC)C(=O)[C@H](C)C[C@H](C)/C=C/C=C/C=C/1C` is recorded as 0% (advanced solid tumour patients; intravenous, 1.6 mg/3 mg weekly, grade ≥3).
`COc1cc2c(Oc3ccc4[nH]c(C)cc4c3F)ccnc2cc1OCC1(N)CC1` — result for “grade 1 or 2 Hyperuricemia”: 0% (paediatric recurrent refractory sarcoma; 8 mg).
Under “serious TEAE, disease progression”, `CCNCCCNC/C=C\CNCCCNCC` is recorded as 6.5% (human, advanced solid tumours; intravenous, dose not given; baseline: patients).
`COc1ccc2nc3cc(Cl)ccc3c(Nc3cc(CN4CCCC4)c(O)c(CN4CCCC4)c3)c2n1` gave a creatinine level of 24 µmol/L (mouse, blood; intraperitoneal, 14 mg/kg).
